Measured values collected from several papers.
A part holds a random share of what one study measured.

Series 1
Target: Probable WRKY transcription factor 33, N-terminal DNA-binding domain (WRKY33, Arabidopsis thaliana, UniProt Q8S8P5, residues 169-264)
Method: DNA-protein interaction ELISA
Form: double-stranded DNA, one strand shown
Matrix: in vitro, bacterial lysate
Concentration: not given
Setting: whole dsDNA probe, crude lysate protein
Baseline: highest signal in screen
Reading: higher = stronger binding
Target sequence (chain): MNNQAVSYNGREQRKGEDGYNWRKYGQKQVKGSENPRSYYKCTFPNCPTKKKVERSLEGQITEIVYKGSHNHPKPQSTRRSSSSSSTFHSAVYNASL
| Strand | relative absorbance |
| --- | --- |
| AAAAAAGATGATTAGTAATTGCGGAAAAAA | 27.8 % of maximum |
| AAAAAATTCTTAGTTAGATTCACCTCAAAA | 23.7 % of maximum |
| AAAAAATTCTTTTTTCTTCAAGGTCTAAAA | 29.9 % of maximum |
| AAAAAACTGGTGTATCTCCTCAATTAAAAA | 22.3 % of maximum |
| AAAAAATAATTACAAGTCGGCTCCACAAAA | 21 % of maximum |
| AAAAAACTACAACCTGCGCGGTGGTCAAAA | 22.6 % of maximum |
| AAAAAATTGGTTCTCATTTCTACTTCAAAA | 24 % of maximum |
| AAAAAACCCGTTCTACCTTATTCCTGAAAA | 26 % of maximum |
| AAAAAAGCCGTGGGTGATGGTCACAGAAAA | 19.7 % of maximum |
| AAAAAATTGCCGTCATAATTGTGGTAAAAA | 22 % of maximum |
| AAAAAAAATACTGCGCACTTGCACTCAAAA | 21.5 % of maximum |
| AAAAAAAAGCTTCGGAGTCTTGAGAAAAAA | 25 % of maximum |
| AAAAAAATGATTTGCAGATCTCCGAGAAAA | 13.6 % of maximum |
| AAAAAACGTTGAACCTGGGCCTCAACAAAA | 26.3 % of maximum |
| AAAAAAGGCGGTCGTAGTTGTGGGAGAAAA | 22.4 % of maximum |
| AAAAAACTACCTCTACTCTAGCCTTAAAAA | 17.5 % of maximum |
| AAAAAATCCCCCCGTTTCACTCTTGCAAAA | 24.8 % of maximum |

Series 2
Target: Fragile X messenger ribonucleoprotein 1, C-terminal low-complexity region (Fmr1, Mus musculus, UniProt P35922)
Method: RNA Bind-n-Seq
Form: RNA
Matrix: in vitro
Concentration: 200 nM
Setting: whole 134-nt RNA, ends assumed
With: 150 mM LiCl
Baseline: input library
Reading: higher = stronger binding
All molecules: 7-deaza-guanosine replaces G
All sequences stand within: GGGAGUUCUACAGUCCGACGAUC … UGGAAUUCUCGGGUGUCAAGG
| Strand | log2 enrichment |
| --- | --- |
| UCAAGUCCUGUGCUACACAUCGUAUGUACCGAAUCGGGUUUGGGUUUGGGUUUGGAAAGUAUUAUGUUACGCCGUUCGGAUCUGCACUUC | -1.01 |
| UCCUCAAGUCCUGUGCUACACAUCGUAUGUACCGAAUCGGUGGGUGGGGUGGAAAGUAUUAUGUUACGCCGUUCGGAUCUGCACUUCCAG | 1.08 |
| CAAGUCCUGUGCUACACAUCGUAUGUACCGAAUCGGGGCCCCGGCCCCGGCCCCGGAAAGUAUUAUGUUACGCCGUUCGGAUCUGCACUU | -2.45 |
| AAGUCCUGUGCUACACAUCGUAUGUACCGAAUCGGGAAAAAAAGGGUGGGUUUGGGAAAGUAUUAUGUUACGCCGUUCGGAUCUGCACUU | -2.47 |
| UGGGAGGUGGAUUUUGUUUAUUUUUUUAGCUCAUUUCCAGGGGUGGGAAUUUUUUUUUAGUAUGUGUCAUGAAUAAAGUUGUUUUUGAAA | 0.756 |
| ACCAUGCAGGUGGGCAUCUUUGGGAAGUGGGGCAAGGGGGGGAUAUGGAGGGGGGUAACACUUUGGGAACAGGUGGUCCCAGGUCGUUUC | 1.25 |
| CAAGUCCUGUGCUACACAUCGUAUGUACCGAAUCGGGGUUUGGGGUUUGGGUUUGGAAAGUAUUAUGUUACGCCGUUCGGAUCUGCACUU | -1.53 |
| UGGCCCUGGUGGCAUGCGGGGAGGAAGAGGUGGCCUCAUGGAUCGUGGUGGUCCCGGUGGAAUGUUCAGAGUUGGCCGUGGUGGAGACAG | -0.842 |
| AAGUCCUGUGCUACACAUCGUAUGUACCGAAUCGGGGAAAAGGAAAAGGAAAAGGGGAAAGUAUUAUGUUACGCCGUUCGGAUCUGCACU | 0.222 |
| UUAAGAAUUUGCUUAAAGAAGUGCGGAUCUAUGCACAGAAAUUUAUUGAUCGAGGAAAGGAUUUUAACUUGGAGUUGGCAAUUAAAACAC | -0.481 |
| UGGGAGGUGGAUUUUGUUUAUUUUUUUAGCUCAUUUCCAGGGGUGGGAAUUUUUUUUUAAUAUGUGUCAUGAAUAAAGUUGUUUUCGAAA | -0.0157 |

Series 3
Target: RNA binding protein fox-1 homolog 2, RRM domain, GST-SBP tag (RBFOX2, Homo sapiens, UniProt O43251-10, residues 100-194)
Method: RNA Bind-n-Seq
Form: RNA
Matrix: in vitro
Concentration: 365 nM
Setting: natural RNA segment, single round, ends assumed
Baseline: no-protein control
Reading: higher = stronger binding
All sequences stand within: GGGAGUUCUACAGUCCGACGAUC … UGGAAUUCUCGGGUGCCAA
Residues (chain): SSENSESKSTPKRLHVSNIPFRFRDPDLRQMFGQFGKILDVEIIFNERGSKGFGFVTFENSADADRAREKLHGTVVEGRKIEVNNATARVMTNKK
| Strand | RBNS enrichment (R) |
| --- | --- |
| AACCCACCCCACACGCCAUGGACCUCAGGGCACUCUCCUCCCUGCCCACAAAGACCUCCUGGGUGGGAAAGACUCAAAGGGGUGCUUGGGCCACUCAGGACCCCUCUGGC | 0.393 |
| AGUGGAAUAUUGUUCACAGGCAGCUCUUUCUGACCCUGGCUCUUGAGUCACAUAAGGAAACCACCUUUGACCUCUCUGACACUUUUGUCUUUAAGCCACGUCUCUGAAAU | 0.198 |
| AUGUUCAGCUUUAGAUAUGUGUCGUAAUGGGAGUCUGAAAACUGUAAUAAACUGUAUUCAUAUCCUGGCUGCUUUGUCUCUGUUGAUUUAGGGGGGUGGGAGAGAGGAGG | 1.08 |
| CAGGAGUAGCAGGAGAUGGGCAAAGAAAACUGGGGUGCACUCAGCUCUCACAGGGGUAAUCAUCUCAAGUGGUAUUUGUAGCCAAGUGGGAGCUAUUUUCUUUUUUGUGC | 0.773 |
| UUGCUCCCUUGAUCCCCCCCUUUUUUUGUCCCUUCGAAGAGUAAAUGCUUUGUAUUUCUUUCUUUAAAAAAUUUACUUUAAAGAAGAAGCCACUUGAACCUUCAAUAAAG | 0.602 |
| AGGGAGGUCUGUGCAUUUUAAACACAAAUGUGAAGAACUUGUAUAUAAACAAAAGUAAAUACUAUAAUACAAACUUCCUUCUGAAAUAAAAGUAGAUCUGGUAAAAAUGU | 0.749 |
| UUUGAGGUCAUUUUUCAGCAACAUUGGAUUCCUUUCUCCUCGGUGUGCUCAGCCUUCUCUGCAGCCUCUGUGAGUUUUCAGCACGUGUGCAGCCACACAGGCUGCAACCU | 1.08 |
| UGACAGCAUCUUCCCCAGGCAGCGGCUCUGUGGAGGAGGCCAUACUCCCCUAGUUGGCCACUGGGGCCACCACCCUGACCACCACUGUGCCCCUCAUUGUUACUGCCUUG | 0.463 |
| CGAAGCCCACGCCAGCCCGGGGAUGGAGCAUGUAUGUAUUAUUUAUCUGCUGGAGUUCUACGUUUUUAUGUAAGCAUGAAACACAGGCAGUGUGAGAGAAAGCCAGGACC | 7.21 |
| CUCUUUGAUACACUUUUGCUUGCCUCCCCAGGAAAGAAGGAAUUGCAUCCAAGGUAUACAUACAUAUUCAUCGAUGUUUCGUGCUUCUCCUUAUGAAACUCCAGCUAUGU | 0.942 |
| AUGUGUGUCUUUCACAGGAGUGACUGCUGCGUGUAAGAGAGCUGUCAAUCAAACUUAUGGUCAUUUUCUUUGCUAACAACCAAUGCUUCACUGUGCCAAAAAAAAAAAAA | 1.21 |
| CAUGCUUCUUAGCGCUGACUUCCAGGAGCAAGAGUGAAGAGGCAGCACGUAGAACUCCCUGCAUAAGCCAAGCCACCAGGCUCCUAUGCCUCUCUUAGUCUUCCCCCUAG | 0.394 |

Series 4
Target: Interferon regulatory factor 7, full length, phosphomimetic (IRF7, Homo sapiens, UniProt Q92985, residues 1-503, S471D/S472D/S475D/S476D/S477D/S483D/S484D/S487D)
UniProt Q92985, sequence (whole entry, unmodified, looked up): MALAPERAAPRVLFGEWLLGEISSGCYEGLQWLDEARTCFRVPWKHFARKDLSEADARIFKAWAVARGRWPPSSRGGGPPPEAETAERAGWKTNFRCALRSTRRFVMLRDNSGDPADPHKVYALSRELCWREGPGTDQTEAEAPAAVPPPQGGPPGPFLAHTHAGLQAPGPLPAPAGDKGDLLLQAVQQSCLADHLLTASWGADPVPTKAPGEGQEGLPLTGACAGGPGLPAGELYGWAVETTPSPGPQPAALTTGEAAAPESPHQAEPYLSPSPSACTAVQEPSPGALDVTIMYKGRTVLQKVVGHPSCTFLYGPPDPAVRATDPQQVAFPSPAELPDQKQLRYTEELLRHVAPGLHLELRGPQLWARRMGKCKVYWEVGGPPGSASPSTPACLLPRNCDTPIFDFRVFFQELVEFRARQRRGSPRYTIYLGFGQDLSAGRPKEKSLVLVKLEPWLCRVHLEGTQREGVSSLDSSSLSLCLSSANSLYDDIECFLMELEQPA
Method: protein-binding microarray
Form: double-stranded DNA, one strand shown
Matrix: in vitro
Concentration: 2200 nM top
Setting: 60-bp whole probe
With: salmon DNA 0.4 mg/ml
Baseline: random background probes
Reading: higher = stronger binding
All sequences stand within: GCCTAGCAC … GTCTTGATTCGCTTGACGCTGCTG
| Strand | fitted relative affinity |
| --- | --- |
| TTAGAACTGAGTCTCCATTAGTGCTAG | -0.0137 z-score |
| TTTTTTTTTTTTTTTGGAATGTGCTAG | 1.8 z-score |
| TTAGGAATCCTTATCCTTTAGTGCTAG | 0.234 z-score |
| GACGGACTGGGTACTGGGGACGTGCTA | -1.09 z-score |
| TTCGGTTCCCTTTTCCTTTAGTGCTAG | 4.65 z-score |
| TTAGATCTCAGTCTGGATTAGTGCTAG | 0.317 z-score |
| CACGGACTGGGTCTCGGGACGTGCTAG | -0.853 z-score |
| TTAGATTTCAGTTCCGATTGGTGCTAG | 2.6 z-score |
| CTCCCTTTCAGTTTTCCTATGTGCTAG | 5.05 z-score |
| TCAACTTTGCTCTGTGCAACTGTGCTA | 0.506 z-score |
| GAAAGCCTGCTGCCAGTCTGGTGCTAG | -0.314 z-score |
| GACGAACTGAGACTGGAGCCGTGCTAG | -0.344 z-score |
| TTAGATTTCGGGACTGGATTGGTGCTA | 1.08 z-score |
| TCAAGCTTCTTTTTTATACTGTGCTAG | 0.363 z-score |
| TTGAGGTTTTCTCTGGTTCTGTGCTAG | 0.718 z-score |
| TCATGTGTCAGGTTTACTACTGTGCTA | 0.396 z-score |
| GACGATTGCAGACTGGAGACGTGCTAG | -0.0147 z-score |
| CATATATTCACTATAGTGTGGTGCTAG | 1.06 z-score |
| CGTTTTTCATTTTTTTTTTCGTGCTAG | 4.75 z-score |
| TTAGGTTTCCACTTTCGGTTAGTGCTA | 10.4 z-score |
| GACGATATCGGGTTTCGAGAAGTGCTA | 0.691 z-score |
| TTAGGCTTCGGTTCCGGTTAGTGCTAG | 1.46 z-score |
| TATCCTTCCCCTCTAGGTTCGTGCTAG | 2.39 z-score |
| GACGGTCTCGGTATCGTGACGTGCTAG | 0.228 z-score |
| TCATTTCTATGTCTGTTACTGTGCTAG | 2.49 z-score |

Series 5
Target: Sal-like protein 4, full length isoform A (SALL4, Homo sapiens, UniProt Q9UJQ4, residues 1-1053)
UniProt Q9UJQ4, sequence (whole entry, looked up): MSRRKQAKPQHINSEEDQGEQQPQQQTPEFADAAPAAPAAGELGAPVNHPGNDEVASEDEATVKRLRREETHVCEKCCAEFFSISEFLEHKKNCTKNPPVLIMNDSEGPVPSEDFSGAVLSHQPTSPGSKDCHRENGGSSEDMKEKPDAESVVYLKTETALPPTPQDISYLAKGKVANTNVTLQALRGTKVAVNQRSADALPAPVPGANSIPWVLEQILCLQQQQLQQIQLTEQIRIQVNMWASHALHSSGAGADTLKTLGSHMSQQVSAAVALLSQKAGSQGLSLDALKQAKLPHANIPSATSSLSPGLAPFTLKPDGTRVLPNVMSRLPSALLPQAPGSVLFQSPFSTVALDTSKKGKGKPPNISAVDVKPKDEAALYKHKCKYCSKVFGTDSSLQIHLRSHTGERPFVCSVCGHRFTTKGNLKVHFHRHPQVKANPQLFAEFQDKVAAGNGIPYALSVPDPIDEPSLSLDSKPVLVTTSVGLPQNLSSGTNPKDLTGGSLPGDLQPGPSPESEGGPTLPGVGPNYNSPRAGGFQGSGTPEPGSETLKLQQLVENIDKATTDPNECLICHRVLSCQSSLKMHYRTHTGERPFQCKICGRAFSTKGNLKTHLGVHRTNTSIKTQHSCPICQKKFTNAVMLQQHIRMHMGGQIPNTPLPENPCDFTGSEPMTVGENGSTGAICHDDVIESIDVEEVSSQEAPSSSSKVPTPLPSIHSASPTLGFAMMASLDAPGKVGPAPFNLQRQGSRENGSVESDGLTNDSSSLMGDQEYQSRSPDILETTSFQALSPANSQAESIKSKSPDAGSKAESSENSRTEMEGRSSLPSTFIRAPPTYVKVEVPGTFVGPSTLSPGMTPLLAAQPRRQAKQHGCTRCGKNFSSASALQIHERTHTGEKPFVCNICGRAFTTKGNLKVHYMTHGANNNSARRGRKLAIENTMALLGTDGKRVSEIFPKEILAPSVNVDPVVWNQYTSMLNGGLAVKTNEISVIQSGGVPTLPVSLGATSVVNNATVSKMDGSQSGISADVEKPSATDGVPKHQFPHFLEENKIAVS
Method: universal PBM
Form: double-stranded DNA, one strand shown
Matrix: in vitro
Concentration: 600 nM
Setting: 8-mer, flanks averaged, mean of replicates
Reading: higher = stronger binding
| Strand | E-score |
| --- | --- |
| CGGGCATA | -0.0749 |
| GCCCCCAA | -0.0725 |
| AATAATGT | 0.335 |
| CGACGACA | -0.11 |
| GTTTACTA | 0.22 |
| CAGATCAG | 0.0174 |
| GCCGCTTA | -0.163 |
| ACCGATAC | 0.0675 |
| ATATAAAA | 0.343 |
| TGCTGAAA | 0.0464 |
| GTAGCCAC | -0.13 |
| CGAAAGAG | -0.0299 |
| GAGATCAC | -0.111 |
| AATGGGAA | 0.0908 |
| CGTTTTAC | 0.0745 |
| ACGGACTG | -0.11 |
| GACATAGC | 0.106 |
| GCCTCATA | 0.172 |
| ACGACATG | 0.0127 |
| AAGTAGTA | 0.214 |
| CGAGGGGC | -0.358 |
| ATTTGTAA | 0.354 |
| ATGCTACG | 0.0249 |
| CACGGCCA | -0.291 |
| AGACTCTC | -0.193 |

Repeated from above (series 4):
| Strand | fitted relative affinity |
| --- | --- |
| TCAAGCTTCTTTTTTATACTGTGCTAG | 0.363 z-score |
| TTGAGGTTTTCTCTGGTTCTGTGCTAG | 0.718 z-score |
| CATATATTCACTATAGTGTGGTGCTAG | 1.06 z-score |
| TTAGGAATCCTTATCCTTTAGTGCTAG | 0.234 z-score |
| TTAGATTTCGGGACTGGATTGGTGCTA | 1.08 z-score |
| CGTTTTTCATTTTTTTTTTCGTGCTAG | 4.75 z-score |
| GACGAACTGAGACTGGAGCCGTGCTAG | -0.344 z-score |
| TTAGATCTCAGTCTGGATTAGTGCTAG | 0.317 z-score |
| GACGGTCTCGGTATCGTGACGTGCTAG | 0.228 z-score |
| GACGATTGCAGACTGGAGACGTGCTAG | -0.0147 z-score |
| TATCCTTCCCCTCTAGGTTCGTGCTAG | 2.39 z-score |
| CACGGACTGGGTCTCGGGACGTGCTAG | -0.853 z-score |
| TCATGTGTCAGGTTTACTACTGTGCTA | 0.396 z-score |
| TTAGAACTGAGTCTCCATTAGTGCTAG | -0.0137 z-score |
